# Assay results collected from several papers.
# A part holds a random share of what one study measured. Changes are numbered by the printed parent chain.

# Set 1
# Target: Ras GTPase-activating protein-binding protein 1, RRM domain (G3BP1, Homo sapiens, UniProt Q13283)
# Chain of UniProt Q13283 (whole entry, looked up): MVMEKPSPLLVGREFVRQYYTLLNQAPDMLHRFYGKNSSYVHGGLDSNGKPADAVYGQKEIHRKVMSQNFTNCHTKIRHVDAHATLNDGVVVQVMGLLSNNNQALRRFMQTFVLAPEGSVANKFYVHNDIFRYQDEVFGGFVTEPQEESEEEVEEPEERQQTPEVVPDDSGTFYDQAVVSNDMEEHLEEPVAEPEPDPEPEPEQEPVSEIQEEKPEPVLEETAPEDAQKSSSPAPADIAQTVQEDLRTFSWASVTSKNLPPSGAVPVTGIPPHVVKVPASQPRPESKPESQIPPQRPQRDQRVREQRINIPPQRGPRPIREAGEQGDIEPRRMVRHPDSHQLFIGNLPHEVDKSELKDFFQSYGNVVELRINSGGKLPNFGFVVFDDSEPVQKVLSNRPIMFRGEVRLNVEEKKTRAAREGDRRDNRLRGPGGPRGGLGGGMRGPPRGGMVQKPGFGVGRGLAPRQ
# Technique: RNA Bind-n-Seq
# Molecule type: RNA
# Sample: in vitro
# Tested at: 1 µM
# Setting: whole 134-nt RNA, ends assumed
# Added: 150 mM KCl
# Reference: input library
# Reading: higher = stronger binding
# All sequences stand within: GGGAGUUCUACAGUCCGACGAUC … UGGAAUUCUCGGGUGUCAAGG
Strand,log2 enrichment
GCAGGAAGUAGAAACAAAUGGAAAUGCUUCGGAUAGUGGCAGGGGUGGGGGUUGCUAAGGAAAGGGUGGGAUGGGAGUGGGUAAAGAGUU,1.21
CUGUGCUACACAUCGUAUGUACCGAAUCGGGGCCCCCCCGGGGCCCCCCCGGCCCCCCCGGGAAAGUAUUAUGUUACGCCGUUCGGAUCU,-0.615
UCCUGUGCUACACAUCGUAUGUACCGAAUCGGGUUUUUGGGUUUUUGGGGUUUUUGGGGAAAGUAUUAUGUUACGCCGUUCGGAUCUGCA,0.0804
AGUCCUGUGCUACACAUCGUAUGUACCGAAUCGGGGUUUGGGGUUUGGGGUUUGGGGAAAGUAUUAUGUUACGCCGUUCGGAUCUGCACU,1.89
AAGUCCUGUGCUACACAUCGUAUGUACCGAAUCGGUUUGGAAAAAGGAAAAAAAGGAAAGUAUUAUGUUACGCCGUUCGGAUCUGCACUU,0.0671
CCUGUGCUACACAUCGUAUGUACCGAAUCGGGCCCCCCCGGCCCCCCCGGCCCCCCCGGGAAAGUAUUAUGUUACGCCGUUCGGAUCUGC,-0.9

# Set 2
# Target: Interferon regulatory factor 7, full length, phosphomimetic (IRF7, Homo sapiens, UniProt Q92985, residues 1-503, S101K/S471D/S472D/S475D/S476D/S477D/S483D/S484D/S487D)
# Technique: protein-binding microarray
# Molecule type: double-stranded DNA, one strand shown
# Sample: in vitro
# Tested at: 250 nM
# Setting: 60-bp whole probe
# Added: salmon DNA 0.4 mg/ml
# Reference: random background probes
# Reading: higher = stronger binding
# All sequences stand within: GCCTAGCAC … GTCTTGATTCGCTTGACGCTGCTG
# Target sequence (chain): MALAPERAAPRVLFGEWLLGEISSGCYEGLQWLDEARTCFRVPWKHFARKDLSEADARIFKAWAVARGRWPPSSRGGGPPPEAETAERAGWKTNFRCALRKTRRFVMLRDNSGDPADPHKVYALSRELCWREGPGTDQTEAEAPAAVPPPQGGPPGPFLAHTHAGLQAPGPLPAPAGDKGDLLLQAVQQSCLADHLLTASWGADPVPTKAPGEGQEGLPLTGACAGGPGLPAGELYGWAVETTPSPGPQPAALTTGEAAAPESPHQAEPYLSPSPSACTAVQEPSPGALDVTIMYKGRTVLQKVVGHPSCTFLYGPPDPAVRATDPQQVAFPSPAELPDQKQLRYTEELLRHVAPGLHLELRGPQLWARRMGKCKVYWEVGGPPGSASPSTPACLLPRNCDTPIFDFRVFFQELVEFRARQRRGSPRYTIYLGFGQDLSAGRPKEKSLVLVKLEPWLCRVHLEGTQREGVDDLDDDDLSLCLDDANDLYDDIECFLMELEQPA
Strand,log fluorescence [z-score]
TTAGTTATCGGTTTCGGTTAGTGCTAG,9.43
GACGGTCTCGGTCTCGGGAAGTGCTAG,1.01
TTCGCTTTCTTTAACTCATTGTGCTAG,1.25
TCATGTTTACATATGTTACTGTGCTAG,0.654
GACGGTATCGGGGATCGGGACGTGCTA,-0.506
TTAGGTCTCGGTTTCGATTAGTGCTAG,11.3

# Set 3
# Target: CCND2, cyclin fold, Cln2 fusion (human)
# Technique: yeast growth competition, sequencing
# Sample: yeast
# Setting: weak parent motif
# Reference: not given
# Reading: higher = stronger binding
# Parent: SAMHD1 docking peptide (human); ASKSRVQLFKDDP; partner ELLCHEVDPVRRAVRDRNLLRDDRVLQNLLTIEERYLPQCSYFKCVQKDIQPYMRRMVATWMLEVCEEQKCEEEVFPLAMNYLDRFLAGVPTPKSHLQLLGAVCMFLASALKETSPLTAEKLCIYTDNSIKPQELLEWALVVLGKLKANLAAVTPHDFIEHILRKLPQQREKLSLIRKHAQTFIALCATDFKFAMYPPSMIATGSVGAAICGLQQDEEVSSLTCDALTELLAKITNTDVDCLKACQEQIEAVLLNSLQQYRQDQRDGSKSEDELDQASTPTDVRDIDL
Variant,normalised enrichment score
ASKFRVQLFKDDP [S4F],0.33
ASKARVQLFKDDP [S4A],0.248
ASKSRVQLFHDDP [K10H],0.00433
ATKSRVQLFKDDP [S2T],-0.0175

# Single results of other studies
Molecule,target,assay,test system,setting,how to read,measurement,value
"PhoQ, residues 284 288 289 292 302 303 SQSLSM","PhoP, residues 12 14 15 18 19 SYFRT (Escherichia coli, UniProt P23836)","Sort-seq, refers to: YFP reporter",E. coli,"PhoQ-PhoP variant library, added: 10 µM Mg2+","reference: high Mg2+ state, higher = stronger signaling",fold induction,0.944

# For quick reference, copied from above (set 1):
Strand,log2 enrichment
CUGUGCUACACAUCGUAUGUACCGAAUCGGGGCCCCCCCGGGGCCCCCCCGGCCCCCCCGGGAAAGUAUUAUGUUACGCCGUUCGGAUCU,-0.615
UCCUGUGCUACACAUCGUAUGUACCGAAUCGGGUUUUUGGGUUUUUGGGGUUUUUGGGGAAAGUAUUAUGUUACGCCGUUCGGAUCUGCA,0.0804
